Results collected from several papers.
Each line is one published result; not all experiments were run side by side. ± marks the error that the study gave.
PTH1R: Parathyroid hormone/parathyroid hormone-related peptide receptor (PTH1R, Homo sapiens, UniProt Q03431)
CXCR4: C-X-C chemokine receptor type 4 (CXCR4, Homo sapiens, UniProt P61073)
CD38: ADP-ribosyl cyclase/cyclic ADP-ribose hydrolase 1 (CD38, Homo sapiens, UniProt P28907)
T1: RNA aptamer; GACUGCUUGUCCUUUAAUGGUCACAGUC
T2: RNA aptamer A50U; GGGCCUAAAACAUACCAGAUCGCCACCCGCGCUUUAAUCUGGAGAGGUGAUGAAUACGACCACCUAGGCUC

`N=C(N)NCCC[C@H](NC(=O)[C@H](Cc1ccccc1)NC(=O)[C@@H](N)CO)C(=O)N[C@@H](CC(N)=O)C(N)=O` gave a maximal response of 1 (Neuropeptide S receptor (NPSR1, Homo sapiens, UniProt Q6W5P4); calcium mobilization, agonist; CHO-Galpha16; unit not given; reference: maximal assay window).
The kon of `CC[C@H](C)[C@H](NC(=O)[C@H](CCC(=O)O)NC(=O)[C@@H](N)CO)C(=O)N[C@@H](CCC(N)=O)C(=O)N[C@@H](CC(C)C)C(=O)N[C@@H](CCSC)C(=O)N[C@@H](Cc1c[nH]cn1)C(=O)N[C@@H](CC(N)=O)C(=O)N[C@@H](CC(C)C)C(=O)NCC(=O)N[C@@H](CCCCN)C(=O)N[C@@H](Cc1c[nH]cn1)C(=O)N[C@@H](CC(C)C)C(=O)N[C@@H](CC(N)=O)C(=O)N[C@@H](CO)C(=O)N[C@@H](CCSC)C(=O)N[C@@H](CCC(=O)O)C(=O)N[C@@H](CCCNC(=N)N)C(=O)N[C@H](C(=O)N[C@@H](CCC(=O)O)C(=O)N[C@@H](Cc1c[nH]c2ccccc12)C(=O)N[C@@H](CC(C)C)C(=O)N[C@@H](CCCNC(=N)N)C(=O)N[C@@H](CCCCN)C(=O)N[C@@H](CCCCN)C(=O)N[C@@H](CC(C)C)C(=O)N[C@@H](CCC(N)=O)C(=O)N[C@@H](CC(=O)O)C(=O)N[C@H](C(=O)N[C@@H](Cc1c[nH]cn1)C(=O)N[C@@H](CC(N)=O)C(=O)N[C@@H](Cc1ccccc1)C(=O)N[C@@H](CCCCNC(=O)c1ccc2c(c1)C1(OC2=O)c2ccc(N(C)C)cc2Oc2cc(N(C)C)ccc21)C(N)=O)C(C)C)C(C)C` is reported as 340000 ± 80000 M⁻¹ s⁻¹ (PTH1R; binding, NanoBRET; HEK293 stably expressing receptor; room temperature, 0.02% sodium azide, together with: 5 µM coelenterazine h).
`O=C1CC[C@H](N2Cc3cc(-c4cnn5ccc(NC6CCOCC6)nc45)ccc3C2=O)C(=O)N1` gave a Dmax of 14% (Cereblon/Casein kinase I alpha (CSNK1A1/CRBN, Homo sapiens, UniProt P48729+Q96SW2); protein level, degrader, luciferase; MOLT-4).
`CC(=O)NCCN(CC(=O)NCCN(CC(=O)NCCN(CC(=O)NCCC(N)=O)C(=O)C[C@@H](N)CCCNC(=N)N)C(=O)C[C@@H](N)Cc1ccccc1)C(=O)C[C@@H](N)Cc1ccccc1` gave a non-electrostatic ΔG° of -7.983 ± 0.0478 kcal/mol (HIV-1 TAR RNA; extrapolated to 1 M KCl).
For `O=C(O)[C@H]1O[C@@H](O[C@@H]2c3cc4ccc5cccc6c7ccccc7c(c3C=C[C@H]2O)c4c56)[C@H](O)[C@@H](O)[C@@H]1O`, the kcat was 0.0117 ± 0.004 s⁻¹ (UDP-glucuronosyltransferase 1A9 (UGT1A9, Homo sapiens, UniProt O60656); glucuronidation, substrate; UGT-expressing HEK293 homogenate; normalized to UGT expression).
`CNc1ccccc1C(=O)O[C@H]1C[C@H](n2cnc3c(N)ncnc32)O[C@@H]1COP(=O)(O)OP(=O)(O)O` — result for “ΔS of ligand binding”: 0.8 ± 4.5 cal/(mol·K) (Unconventional myosin-Va (Gallus gallus, UniProt Q02440, D297C/G292C/I296C/S293C/V295G); van't Hoff analysis; concentration not given, together with: 10 mM Mg2+).
`CCCCc1ccc(C2=Nn3c(nnc3-c3ccccc3OC)SC2)cc1` has an Emax of 12% (CXCR4; β-arrestin recruitment, agonist; U2OS).
Under “melting temperature change”, `NC[C@@H]1O[C@H](O[C@H]2[C@@H](O)[C@H](O[C@@H]3[C@@H](O)[C@H](N)C[C@H](N)[C@H]3O[C@H]3O[C@H](CN)[C@@H](O)[C@H](O)[C@H]3N)O[C@@H]2CO)[C@H](N)[C@@H](O)[C@@H]1O` is recorded as 13.3 °C (T1, RNA aptamer; UV melting; 1 µM RNA, 10 µM molecule, pH 6.8, NaCl 100 mM).
For `CC1=CC(C)(C)N=C(Nc2nc(-c3ccccc3)c3ccccc3n2)N1`, the remaining activity was 57 ± 4% (CD38; cyclase activity, fluorometric; 50 µM, together with: NGD+ substrate; reference: untreated).
For `CC(C)(C)CCN1C[C@@H]2[C@@H](CNC(=O)c3cc(Cl)cc(Cl)c3)[C@@H]2C1.Cl`, the half-activation voltage was -3.52 ± 2.6 mV (Voltage-dependent L-type calcium channel subunit alpha-1F, exon 47 deletion isoform (Homo sapiens, UniProt O60840); calcium current, whole-cell patch clamp; HEK-293T cells; 50 nM).
For `Cc1cc(O)cc2c1C(=O)c1c(cc3oc(=O)cc(-c4ccc(O)cc4)c3c1O)C2=O`, the inhibition was 41 ± 0.45% (mushroom tyrosinase; enzyme activity; 25 µg/mL, together with: L-DOPA).
`CCCCCCCC/C=C\CCCCCCCC(=O)O[C@H]1C=CCO[C@@H]1COP(=O)(O)S` (stereo partly drawn) has an Emax of 32% (Lysophosphatidic acid receptor 6 (Homo sapiens, UniProt P43657); agonist, TGFα shedding).
For `NC(=O)C1CCNC(=O)C(CCCNC(=O)c2cnccn2)NC(=O)C(CC2CCCCC2)NC(=O)C(CC2CC2)NC(=O)C=CC(=O)N1` (stereo not drawn), the enrichment factor was 1.5 (RAC-gamma serine/threonine-protein kinase (AKT3, Homo sapiens, UniProt Q9Y243); DNA-templated library selection; one selection round).
The inhibition of `Cc1c2c(cc3oc(=O)cc(-c4ccccc4)c13)C(=O)c1cccc(O)c1C2=O` is reported as 61.45 ± 0.14% (mushroom tyrosinase; enzyme activity; 50 µg/mL, together with: L-DOPA).
The kon of `CC[C@H](C)[C@H](NC(=O)[C@H](CCC(=O)O)NC(=O)[C@H](CO)NC(=O)[C@@H](NC(=O)[C@@H](N)CO)C(C)C)C(=O)N[C@@H](CCC(N)=O)C(=O)N[C@@H](CC(C)C)C(=O)N[C@@H](CCSC)C(=O)N[C@@H](Cc1c[nH]cn1)C(=O)N[C@@H](CC(N)=O)C(=O)N[C@@H](CC(C)C)C(=O)NCC(=O)N[C@@H](CCCCN)C(=O)N[C@@H](Cc1c[nH]cn1)C(=O)N[C@@H](CC(C)C)C(=O)N[C@@H](CC(N)=O)C(=O)N[C@@H](CO)C(=O)N[C@@H](CCSC)C(=O)N[C@@H](CCC(=O)O)C(=O)N[C@@H](CCCNC(=N)N)C(=O)N[C@H](C(=O)N[C@@H](CCC(=O)O)C(=O)N[C@@H](Cc1c[nH]c2ccccc12)C(=O)N[C@@H](CC(C)C)C(=O)N[C@@H](CCCNC(=N)N)C(=O)N[C@@H](CCCCN)C(=O)N[C@@H](CCCCN)C(=O)N[C@@H](CC(C)C)C(=O)N[C@@H](CCC(N)=O)C(=O)N[C@@H](CC(=O)O)C(=O)N[C@H](C(=O)N[C@@H](Cc1c[nH]cn1)C(=O)N[C@@H](CC(N)=O)C(=O)N[C@@H](Cc1ccccc1)C(=O)N[C@@H](CCCCNC(=O)c1ccc2c(c1)C1(OC2=O)c2ccc(N(C)C)cc2Oc2cc(N(C)C)ccc21)C(N)=O)C(C)C)C(C)C` is reported as 440000 ± 80000 M⁻¹ s⁻¹ (PTH1R; binding, NanoBRET; HEK293 stably expressing receptor; room temperature, 0.02% sodium azide, together with: 5 µM coelenterazine h).
`Cc1cc2c(c(O)c1O)C(=O)c1c(O)cc(O)cc1C2=O` has a stimulation of -11 ± 0.66% (Vasopressin V1a receptor (AVPR1A, Homo sapiens, UniProt P37288); calcium mobilization, agonist; CHO, transfected; 50 µM; reference: AVP 1 µM).
Under “specific activity ratio”, `CCCCCCC(=O)Nc1ccc(OC)nc1C` is recorded as 6.4 (Liver carboxylesterase 1 (CES1, Homo sapiens, UniProt P23141); enzyme activity, substrate; reference: CES1 over human CES2).
Under “unblocking time constant”, `CCCCCC[N+](CCCCCC)(CCCCCC)CCCCCC` is recorded as 168 ± 17 ms (Potassium channel subfamily K member 2 (Kcnk2, Rattus norvegicus, UniProt Q920B6); ion current, blocker, inside-out patch clamp; 5 µM).
Under “change in lag phase”, `CN1CCN(CC(=O)N2N=C3/C(=C/c4ccccc4)CCCC3C2c2ccccc2)CC1` (mixture of isomers) is recorded as 84 s (Polyunsaturated fatty acid lipoxygenase ALOX15 (ALOX15, Homo sapiens, UniProt P16050); enzyme activity, activator; concentration not given, 10 µM activator, together with: 25 µM docosahexaenoic acid; reference: without activator).
With `CN(C)[C@@H]1C(=O)C(C(N)=O)=C(O)[C@@]2(O)C(=O)C3=C(O)c4c(O)cccc4[C@@](C)(O)[C@H]3C[C@@H]12` the Kd was 208 nM (T2, RNA aptamer A50U; ITC; pH 7.5, 25 °C, MgCl2 10 mM).
`N=C(CF)NCCC[C@H](NC(=O)c1ccc(/N=N/c2ccccc2)cc1)c1nc2ccccc2[nH]1` — result for “IC50 fold difference”: 2 fold (Protein-arginine deiminase type-2 (PADI2, Homo sapiens, UniProt Q9Y2J8); inhibitor, competitive ABPP; reference: other photoisomer over this photoisomer).
`C=CCC1C(=O)C=C(OC)C2(OC)C(C)C(c3ccc4c(c3)OCO4)OC12` (single isomer, unassigned; (-)) — result for transcriptional activity: “decreased” (FXR L287N, L348N, I352N, W454H; reporter gene; HEK293T; concentration not given; reference: wild type).
For `COc1ccc(CCNC(=N)NCc2ccncc2)cc1`, IC50 read “inactive” (CXCR4; arrestin recruitment, DiscoverX).
Under “thermal shift ΔTm”, `COc1cc(-c2cnc3nc2NCCCNS(=O)(=O)c2cccc(c2)N3)ccc1F` is recorded as 4.4 K (Fibroblast growth factor receptor 2 (FGFR2, Homo sapiens, UniProt P21802); differential scanning fluorimetry; 10 µM; higher = stronger binding).
`[3H]C([3H])([3H])c1cnccc1CN1C[C@@H](c2cc(F)c(F)c(F)c2)CC1=O` — result for specific binding: “increased” (Synaptic vesicle glycoprotein 2A (SV2A, Homo sapiens, UniProt Q7L0J3); radioligand binding; human Alzheimer disease, frontal, parietal, cerebellum homogenate; 5 nM; reference: control brains).
For `CCc1nc2cc3ccccc3cc2cc1C(=O)N1CCC[C@H]1C(=O)N[C@@H](C/C=C\C[C@H](NC(=O)[C@@H]1CCCN1C(=O)c1cc2cc3ccccc3cc2nc1CC)C(=O)N[C@@H](CCCCN)C(=O)NCCCN)C(=O)N[C@@H](CCCCN)C(=O)NCCCN`, the residence time was 67 s (HIV-1 frameshift site RNA; SPR).
With `Cc1ccc2c(c1Br)C(O)(CC(=O)c1ccc3c(c1)OCO3)C(=O)N2` (stereo not drawn) the Rmax was 10.21 ± 0.05 RU (Uncharacterized protein (Trypanosoma brucei brucei, UniProt Q386Q8); surface plasmon resonance; Trypanosoma brucei; together with: 500 µM UTP).
For `O=C1CCC(N2C(=O)c3cccc(NCC(=O)N4CCN(c5ccc(Nc6nccc(Oc7ccccc7)n6)cc5)CC4)c3C2=O)C(=O)N1` (stereo not drawn), the degradation was about 50% (Cereblon/Ikaros (Homo sapiens, UniProt Q13422+Q96SW2); degrader, TMT quantitative proteomics; Mino; 200 nM, 4 h).
`CC(=O)NCCN(CCC(=O)NCCN(CCC(=O)NCCN(CCC(=O)NCCC(N)=O)C(=O)[C@@H](N)CCCNC(=N)N)C(=O)[C@@H](N)CCCCN)C(=O)[C@@H](N)Cc1ccccc1`: “binding free energy ΔG°” -8.22 ± 0.359 kcal/mol (HIV-1 TAR RNA; 25 °C).
The PKA activation of `C=C[C@]12CCC(=O)C=C1CC[C@H]1[C@@H]3CC[C@H](C(C)=O)[C@@]3(C)CC[C@@H]12` is reported as 170 ± 15.8% (Membrane progesterone receptor epsilon (Paqr9, Mus musculus, UniProt Q6TCG2); pPKA/PKA immunoblot; MDA-MB-231 expressing Paqr9-GFP; 300 nM, 20 min; reference: control).
`CC(=O)NCCN(CC(=O)NCCN(CC(=O)NCCN(CC(=O)NCCC(N)=O)C(=O)[C@@H](N)CCCNC(=N)N)C(=O)[C@@H](N)CCCNC(=N)N)C(=O)[C@@H](N)Cc1ccccc1`: “heat capacity change ΔCp” -2.61 ± 0.28 kJ/mol/K (HIV-1 TAR RNA; concentration not given).
`COc1ccc2c(c1)c(CC(=O)[O-])c(C)n2C(=O)c1ccc(Cl)cc1.COc1ccc2c(c1)c(CC(=O)[O-])c(C)n2C(=O)c1ccc(Cl)cc1.[Co+2].c1c[nH]cn1.c1c[nH]cn1`: “cathodic peak potential shift” -20 mV (calf thymus DNA; cyclic voltammetry; DMSO/buffer; Co(II)/Co(I) couple; reference: without DNA).
With `CC(=O)NCCN(CCC(=O)NCCN(CCC(=O)NCCN(CCC(=O)NCCC(N)=O)C(=O)[C@@H](N)CCCNC(=N)N)C(=O)[C@@H](N)CCCNC(=N)N)C(=O)[C@@H](N)Cc1ccccc1` the non-electrostatic ΔG° was -8.246 ± 0.0478 kcal/mol (HIV-1 TAR RNA; extrapolated to 1 M KCl).
Under “k4 rate constant”, `CCc1cc(C)n2nc(-c3ccc(OCC[18F])cc3)c(CC(=O)N(CC)CC)c2n1` is recorded as 0.017 ± 0.002 min⁻¹ (Translocator protein (Tspo, Rattus norvegicus, UniProt P16257); two-tissue compartment model; rat C6 glioma model, tumor; 60 min dynamic PET).
For `CC1=NC(Nc2nc(C)c3cc(C)cc(C)c3n2)=NC(C)(C)C1`, the remaining activity was 52.1 ± 8.6% (CD38; cyclase activity, fluorometric; 50 µM, together with: NGD+ substrate; reference: untreated).
`CC(=O)NCCN(CC(=O)NCCN(CC(=O)NCCN(CC(=O)NCCC(N)=O)C(=O)C[C@@H](N)Cc1ccccc1)C(=O)C[C@@H](N)Cc1ccccc1)C(=O)C[C@@H](N)CCCNC(=N)N` — result for “binding free energy ΔG°”: -9.06 ± 0.263 kcal/mol (HIV-1 TAR RNA; 25 °C).
